# Measurements from different studies.
# A part holds a random share of what one study measured.

# Sample 1
# Target: RNA binding protein fox-1 homolog 2, RRM domain, GST-SBP tag (RBFOX2, Homo sapiens, UniProt O43251-10, residues 100-194)
# Technique: RNA Bind-n-Seq
# Form: RNA
# Medium: in vitro
# Tested at: 365 nM
# Setting: natural RNA segment, single round, ends assumed
# Baseline: no-protein control
# Reading: higher = stronger binding
# All sequences stand within: GGGAGUUCUACAGUCCGACGAUC … UGGAAUUCUCGGGUGCCAA
# Target sequence (chain): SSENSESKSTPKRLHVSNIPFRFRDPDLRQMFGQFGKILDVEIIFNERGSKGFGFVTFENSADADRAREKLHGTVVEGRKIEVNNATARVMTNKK
Strand,RBNS enrichment (R)
AGGCGUGGGGCUGCCAGGCUCGGGCUUGGCACACCAAAGGCCAGCUGCAUGUCAGUUUCUCUCCUUCCACAGUUAUGUUGGCUUCCAUGCUUUUUCAGAUUGUGUGGUAG,1.24
GAAUUGAACUCCUUGAGAGAUAGUUGGGUUUACUAAAUUAUUCUCUCUAAAAUGUCUCUGAGUGAAAAAGAGUUGCCUGGUACAAACAAAUCUGUGUUGGGGUUCCAGUG,0.544
AUAUUAACCACAAUCAUCUCUAGAGGAAAGAGUAUUACAACCCAGGCAUGAUCCUCUAUGGACACUAACUUACCCCAUGUCCACCUUUGCCCAAAAACACUGAAACUGUG,3.12
GCCUGUAUUAUAAUGUGAAUUUUGUAGAUGUAGGGAAUAAGUUGCUGUAAAAUGUGUGUAAAUUUGUAUCCUUUACACAAGUUUAGUCUCUUACUCUGACACAUAGUAAU,1.32
UUGGGUGUUAGCUUGAGAUGGUUAAAGGUGGUUUGGGGAGGGACUUCGUUGUAAUGGUUUUGCUGUAAAAAAUGUUUCCAACUCCGCUGAAAUGUUGCUGAAAAGCAUGG,1.06
UCAGAGUGGGCUGGGCCCCUGGGCGAGACACAGCUACCUCUGUUGGCAUCUUUUUAAUACCAGGAACCCAGCGGCUCUAGCCACUGAGCGGCUAAAUGAAAUAAAGUGGA,0.278
CGACUUUGCACUUAAAAAGGGAUAUUGUAAAUGAAAGGCUGCAGUGCCAGUUUUAAGAAAGAAUUUCUGUGAAGUGUGAGGACUCUGGAGUCUAGCUCACAUAAAGAGAG,0.546
CUACCUGCCCCAACUCUCAAAGACCUUGAUCCCUUCUUUUCCUUCCAUCCCACCUUUUCCUUCCACUGCCCAAUCACAGCCUCUAGCCUUUAUUUGACCAGUUAAAAUGG,0.757
AAAACUGUGACCAGUUCAAAUUAUGACUCAGAACGUAGGGCCAGCACCAGCUACCUCUGCAGACUCCCAGUGACUCUCUCUUCACAAGCAGAUGAAGGGAAGGCUCAGAA,0.389
AGAACAACCCACCCGUCGCCCUUCUCCGUAUGCUGCCUGCGCCAGAAGAGCUUUGCUGGGCCCUGGCUUCCCUGCCCUCGCCUUCACCUCUGUCAGCAGGUGGCCUUGCC,0.449
GGUAUCGGGAAUCCUUGAACAAUUUGGGUUUUCUUCCCCUUUUUUCUCUUUCGUGCUGCAUGCACAUUUAUCCAACACUCACGGGUUGUUUGGGAAAAAGUACCAGCAAU,0.788
ACUAUAAUAUGGAUCAUCUCUACUUCUGUAUUUAUUUAUUUAUUACUAGACCUCAACCACAGUCUUCUUUUUCCCCUUCCACCUCUCUUUGCCUGUAGGAUGUACUGUAU,3.62

# Sample 2
# Target: RING finger protein unkempt homolog, zinc fingers 1-6, GST-SBP tag (UNK, Homo sapiens, UniProt Q9C0B0, residues 30-357)
# UniProt Q9C0B0, sequence (30-357, looked up): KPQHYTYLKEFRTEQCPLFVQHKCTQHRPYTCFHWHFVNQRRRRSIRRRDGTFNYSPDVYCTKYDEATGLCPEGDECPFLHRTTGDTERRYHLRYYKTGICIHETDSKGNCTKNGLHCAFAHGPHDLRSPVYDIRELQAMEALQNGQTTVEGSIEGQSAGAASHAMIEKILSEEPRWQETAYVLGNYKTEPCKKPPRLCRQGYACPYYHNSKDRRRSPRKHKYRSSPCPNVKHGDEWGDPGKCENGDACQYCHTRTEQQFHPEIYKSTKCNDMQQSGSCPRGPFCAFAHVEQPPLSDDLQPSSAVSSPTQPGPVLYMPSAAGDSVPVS
# Technique: RNA Bind-n-Seq
# Form: RNA
# Medium: in vitro
# Tested at: not given
# Setting: RNA with constant flanks, human and mouse sites, ends assumed
# Baseline: input RNA pool
# Reading: higher = stronger binding
# All sequences stand within: GGGAGUUCUACAGUCCGACGAUC … CAACAGAGGAUUGAGCAUCA
Strand,bound/input enrichment
CAAGAGCUGAGGGUAAGGGCAGGUAGGCGUGAGGCUGUGGACAUUUUCGGAAUGUUUUGGUUUUGUUUUUUUUAAACCGGGCAAUAUUGUGUUCAGUUCAAGCUGUGAAGAAAAAUAUAU,0.232 ratio
GCUAGCAGGCCCACACCAGACGAGCUGGAGGCCGUGCGCAAGUACUUCCAGCUAGAUGUUACCCUGGCUCAACUGUAUCACCACUGGGGUUCCGUGGACUCCCACUUCCAAGAGGUGGCU,0.947 ratio
AAGCGUGUUGAUAAUGGCUUCCUGCAAACGUCCGGUGGUGUUUUUUGUUUCUAAAUCAGGUCUUUUUUUAUGUUUUUCCCAUUUGCACCCUAAUUUGACAUCAAAUUUCCCCCCUCCUGU,0.617 ratio
ACUCUGUGGUUAGUAAGAGGCCUUUGCUCAGGUCCCAUUCUGUUCCUCUUCCCUGCUGAGUAUAGGUAGCUGGAUCCUGCGGUCCACUUUGCUUACUAUCUAACUGCCUUUGAUUGAUUG,0.125 ratio
UCUUUAUGUUUUUUUCAUUGUUUUAAUGUCACGUGGAUUGUCUUUCCUGGGCUCUUUGUGAGCAGAAGGAUUUCAGAGAAGCUCGCAUAAUGAAAAGGGGAGACUCAUGGAUCUCACAAG,0.282 ratio
UUGUGGAACACCAUGGUCAUCGGAGGCUAUGCUGAUGGAGAGAGCUUCCUCGGUUAUGUGGACAUGCUUGGUGUAGCCUAUGAAGCCCCUUCGCUGGCCACUGGUUAUGGUGCAUACUUG,0.087 ratio
AAGAACACACCGGUCAAAUCUUCAGAAGGAUCUCAGCAAAAGAGCCCAUCAUAUCCCAGUGACUCCACAACCAUGUUCACCAUAGAGGGCAUGCAUUGUAAAUCGUGUGUGUCCAAUAUU,0.251 ratio
GUGACAGACUCCAGCCGCUACUUUGUGAUCAGGAUCCAGGAUGGAACCGGGCGCAGCGCGUUUAUUGGCAUCGGCUUCACGGAUCGGGGAGAUGCCUUCGACUUUAAUGUUUCCCUGCAA,0.203 ratio
CCACGGGCAGGGUCGCCCUGGCCCACAGCACGUGAGCCUGCACUCACUGCGGCCUUUGUAACAAAACCAGUUGUGGUCCUCAGCAUUUGAAGCAGCUGCAUACUUCAGAGUAAACUAUUU,0.112 ratio
UGGGCACUGUAUCAGAUAGAUUACUUUUUAAAUGUAGAUAAAAUUUCAAAAAUGAAUGGCUAGUUUACGUGAUAGAUUAGGCUCUUACUACAUAUGUGUGUGUAUAUAUAUGUAUUUGAU,11.8 ratio
AAAGGAGAGAAGAAGGAGAAAAAACAGCAAUCAAUAGCUGGAAGUGCCGACUCUAAGCCAAUAGAUGUUUCCCGUCUGGAUCUUCGAAUUGGUUGCAUCAUAACUGCUAGAAAACACCCU,0.254 ratio

# Sample 3
# Target: Ras GTPase-activating protein-binding protein 1, full length (G3BP1, Homo sapiens, UniProt Q13283)
# UniProt Q13283, sequence (whole entry, looked up): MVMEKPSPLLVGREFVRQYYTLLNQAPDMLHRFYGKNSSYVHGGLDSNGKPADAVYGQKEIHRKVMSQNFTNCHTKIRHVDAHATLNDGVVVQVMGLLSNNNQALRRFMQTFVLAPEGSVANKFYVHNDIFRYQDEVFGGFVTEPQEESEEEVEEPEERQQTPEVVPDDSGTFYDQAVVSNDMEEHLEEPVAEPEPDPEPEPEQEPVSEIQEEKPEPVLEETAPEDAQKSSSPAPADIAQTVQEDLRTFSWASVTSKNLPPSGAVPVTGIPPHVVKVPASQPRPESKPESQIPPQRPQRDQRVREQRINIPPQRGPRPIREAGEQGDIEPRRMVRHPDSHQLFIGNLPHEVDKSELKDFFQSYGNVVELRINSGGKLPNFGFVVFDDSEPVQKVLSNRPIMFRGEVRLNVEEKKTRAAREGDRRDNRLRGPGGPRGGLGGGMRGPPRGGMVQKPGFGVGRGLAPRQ
# Technique: RNA Bind-n-Seq
# Form: RNA
# Medium: in vitro
# Tested at: 200 nM
# Setting: whole 134-nt RNA, ends assumed
# With: 150 mM KCl
# Baseline: input library
# Reading: higher = stronger binding
# All sequences stand within: GGGAGUUCUACAGUCCGACGAUC … UGGAAUUCUCGGGUGUCAAGG
Strand,log2 enrichment
GCAGGAAGUAAAAACAAAUGGAAAUGCUUCGGAUAGUGGCGGGGGUGGGGGUUGCUAAGGAAAGGGUGGGAUGGGAGUGGGUAAAGAGUU,0.943
UCAAGUCCUGUGCUACACAUCGUAUGUACCGAAUCGGCCCGGGCCCGGGCCCGGAAAGUAUUAUGUUACGCCGUUCGGAUCUGCACUUCC,-1.39
GUCCUGUGCUACACAUCGUAUGUACCGAAUCGGAAAAAAGGAAAAAAGGGAAAAAAGGAAAGUAUUAUGUUACGCCGUUCGGAUCUGCAC,-1.02
CACAGACAACACGCACCCACACAGACACUGAGGGAAGGGGUUGGGAUGGGGACAGGGUGCACAGCAGGGCGGGGUAGGACCCCAGCCCCU,1.76
UAACUUUAGAGGAGGAUCUGAUGGAUAUGGCAGUGGACGUGGAUUUGGGGAUGGCUAUAAUGGGUAUGGAGGAGGACGUGGAGGUGGCAA,0.819
UCCUCAAGUCCUGUGCUACACAUCGUAUGUACCGAAUCGGGCGGCGGGCGGGAAAGUAUUAUGUUACGCCGUUCGGAUCUGCACUUCCAG,0.686
CCUGUGCUACACAUCGUAUGUACCGAAUCGGGUUUUUUUGGGUUUUUUUGGGAAAAAGGGAAAGUAUUAUGUUACGCCGUUCGGAUCUGC,-1.07
UCCUGUGCUACACAUCGUAUGUACCGAAUCAAACCCCCCCAAAUUUUUAAAUUUUUAAAAAAGUAUUAUGUUACGCCGUUCGGAUCUGCA,0.321
UCCUGUGCUACACAUCGUAUGUACCGAAUCGGGGUUUGGGGAAAAAAAGGGGUUUGGGGAAAGUAUUAUGUUACGCCGUUCGGAUCUGCA,0.806
CUCAAGUCCUGUGCUACACAUCGUAUGUACCGAAUCGGGAAGGGAAGGAAGGGGAAAGUAUUAUGUUACGCCGUUCGGAUCUGCACUUCC,0.949
UACCUUUAGAGGAGGAUCUGAUGGAUAUGGCAGUGGACGUGGAUUUGGGGAUGGCUAUAAUGGGUAUGGAGGAGGACCUGGAGGUGGCAA,0.37
AGUCCUGUGCUACACAUCGUAUGUACCGAAUCGGUUUUUUUGGAAAAAGGAAAAAGGAAAGUAUUAUGUUACGCCGUUCGGAUCUGCACU,-1.6
UCAGUGUCUUACCCUGAAGAGAAAGUUGUAGGUUGGCUGUUGAAAUUCAUUCCUUAGAUAUGAUCAGUUUGAUUGCCCGGCUUUAUUGCC,-1.73
GUCCUGUGCUACACAUCGUAUGUACCGAAUCGGGGAAAGGGGAGGGGUUUUUUUGGGGAAAGUAUUAUGUUACGCCGUUCGGAUCUGCAC,0.32

# Sample 4
# Target: Histone acetyltransferase KAT6A, winged helix 2, GST fusion (KAT6A, Homo sapiens, UniProt Q92794, residues 85-181)
# Technique: protein binding microarray
# Form: double-stranded DNA, one strand shown
# Medium: in vitro
# Tested at: not given
# Setting: 8-mer, flanks averaged, mean of 2 arrays, mostly near background
# Baseline: not given
# Reading: higher = stronger binding
# Residues (chain): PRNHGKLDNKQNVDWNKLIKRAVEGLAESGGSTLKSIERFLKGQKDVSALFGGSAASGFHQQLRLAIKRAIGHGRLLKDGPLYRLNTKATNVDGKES
Strand,E-score
AACGGGGA,-0.0928
CACCTGCA,0.103
TACCACAA,0.0463
ATTCCGGC,0.206
AGATGTAG,-0.163
AATTTGCA,-0.00109
CTGCTTTA,0.113
AAAAGGAC,0.0356
AAAGAGGA,-0.197
TATCACGA,-0.0288
GAATAAGC,-0.0038
AATGAGAT,-0.0605
AGCATAAG,0.0463
ACCAGCTG,0.0895
GCACAGAC,0.155
AAGTACGC,-0.115

# Sample 5
# Target: Sal-like protein 4, full length isoform B (SALL4, Homo sapiens, UniProt Q9UJQ4-2, residues 1-616)
# Technique: universal PBM
# Form: double-stranded DNA, one strand shown
# Medium: in vitro
# Tested at: not given
# Setting: 8-mer, flanks averaged, mean of replicates
# Reading: higher = stronger binding
Strand,E-score
TACTGTAA,0.197
CATGTCGG,-0.144
CGCGCAAC,-0.17
CAGAGGCG,-0.177
ACGAAAGG,0.0356
ATAGGACC,-0.105
CATCGCAA,-0.012
GAGGCACA,-0.0571
TCGGATAA,0.131
GGTCAATA,0.171
CTTAAGGA,0.0084
TCCCTTAA,0.116
ACATCTGC,-0.0893
GACTGTAC,-0.0106
ATCGTAGC,0.114
AGGCCGTA,-0.0616
GCTTAAAA,0.0829
CGCTAGAA,-0.122
GTGGTGCA,-0.0911
GGCGAGAA,-0.062
GCTTCCGA,-0.0146
CACACCGG,-0.404

# Repeated from above (sample 1):
Strand,RBNS enrichment (R)
UUGGGUGUUAGCUUGAGAUGGUUAAAGGUGGUUUGGGGAGGGACUUCGUUGUAAUGGUUUUGCUGUAAAAAAUGUUUCCAACUCCGCUGAAAUGUUGCUGAAAAGCAUGG,1.06
AAAACUGUGACCAGUUCAAAUUAUGACUCAGAACGUAGGGCCAGCACCAGCUACCUCUGCAGACUCCCAGUGACUCUCUCUUCACAAGCAGAUGAAGGGAAGGCUCAGAA,0.389
AGAACAACCCACCCGUCGCCCUUCUCCGUAUGCUGCCUGCGCCAGAAGAGCUUUGCUGGGCCCUGGCUUCCCUGCCCUCGCCUUCACCUCUGUCAGCAGGUGGCCUUGCC,0.449
AGGCGUGGGGCUGCCAGGCUCGGGCUUGGCACACCAAAGGCCAGCUGCAUGUCAGUUUCUCUCCUUCCACAGUUAUGUUGGCUUCCAUGCUUUUUCAGAUUGUGUGGUAG,1.24
GAAUUGAACUCCUUGAGAGAUAGUUGGGUUUACUAAAUUAUUCUCUCUAAAAUGUCUCUGAGUGAAAAAGAGUUGCCUGGUACAAACAAAUCUGUGUUGGGGUUCCAGUG,0.544
GCCUGUAUUAUAAUGUGAAUUUUGUAGAUGUAGGGAAUAAGUUGCUGUAAAAUGUGUGUAAAUUUGUAUCCUUUACACAAGUUUAGUCUCUUACUCUGACACAUAGUAAU,1.32
